Published values collected from several papers.
Every numbered part comes from another study and shows a few of its results, in no order. Several values in a cell are separate wells, animals, samples, runs or records.
Chain of UniProt P23443 (whole entry, looked up): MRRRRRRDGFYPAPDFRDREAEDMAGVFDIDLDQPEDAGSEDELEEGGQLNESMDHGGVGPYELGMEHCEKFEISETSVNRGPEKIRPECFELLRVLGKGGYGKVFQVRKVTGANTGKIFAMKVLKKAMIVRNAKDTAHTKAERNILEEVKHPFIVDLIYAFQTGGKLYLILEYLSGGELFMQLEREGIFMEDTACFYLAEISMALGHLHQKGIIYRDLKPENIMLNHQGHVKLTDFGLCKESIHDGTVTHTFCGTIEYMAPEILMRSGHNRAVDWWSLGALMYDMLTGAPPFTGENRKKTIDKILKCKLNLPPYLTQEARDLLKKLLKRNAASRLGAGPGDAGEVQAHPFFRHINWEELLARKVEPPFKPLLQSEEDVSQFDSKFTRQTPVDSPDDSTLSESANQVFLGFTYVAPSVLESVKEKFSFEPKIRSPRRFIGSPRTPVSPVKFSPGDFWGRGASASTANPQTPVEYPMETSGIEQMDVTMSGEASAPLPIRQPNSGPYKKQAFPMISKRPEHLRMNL
Chain of UniProt P11802 (whole entry, looked up): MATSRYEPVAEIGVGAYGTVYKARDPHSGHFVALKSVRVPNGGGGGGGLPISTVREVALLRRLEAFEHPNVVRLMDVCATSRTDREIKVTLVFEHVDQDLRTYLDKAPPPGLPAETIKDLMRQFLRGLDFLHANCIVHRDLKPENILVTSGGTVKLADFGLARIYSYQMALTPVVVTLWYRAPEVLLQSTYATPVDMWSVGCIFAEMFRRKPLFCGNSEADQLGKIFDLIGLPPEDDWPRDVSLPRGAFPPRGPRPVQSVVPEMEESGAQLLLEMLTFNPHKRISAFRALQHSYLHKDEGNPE
Chain of UniProt Q06187 (whole entry, looked up): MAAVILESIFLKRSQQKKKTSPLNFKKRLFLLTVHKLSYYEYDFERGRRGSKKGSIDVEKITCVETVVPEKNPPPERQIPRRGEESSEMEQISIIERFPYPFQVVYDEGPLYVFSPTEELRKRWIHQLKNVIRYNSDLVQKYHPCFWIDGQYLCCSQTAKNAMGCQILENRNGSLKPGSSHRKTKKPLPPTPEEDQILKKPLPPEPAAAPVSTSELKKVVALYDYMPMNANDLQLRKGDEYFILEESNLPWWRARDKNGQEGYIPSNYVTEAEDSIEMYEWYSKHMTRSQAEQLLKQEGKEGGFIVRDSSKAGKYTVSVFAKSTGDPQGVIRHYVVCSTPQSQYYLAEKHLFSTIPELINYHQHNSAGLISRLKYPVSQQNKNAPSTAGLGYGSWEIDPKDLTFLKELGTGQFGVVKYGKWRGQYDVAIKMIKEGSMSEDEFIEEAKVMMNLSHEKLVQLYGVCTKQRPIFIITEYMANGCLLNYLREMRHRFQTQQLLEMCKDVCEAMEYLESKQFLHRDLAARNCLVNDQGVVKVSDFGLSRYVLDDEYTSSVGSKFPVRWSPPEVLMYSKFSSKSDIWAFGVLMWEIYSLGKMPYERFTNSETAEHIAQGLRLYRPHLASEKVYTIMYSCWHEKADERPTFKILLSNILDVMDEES
Chain of UniProt Q15831 (whole entry, looked up): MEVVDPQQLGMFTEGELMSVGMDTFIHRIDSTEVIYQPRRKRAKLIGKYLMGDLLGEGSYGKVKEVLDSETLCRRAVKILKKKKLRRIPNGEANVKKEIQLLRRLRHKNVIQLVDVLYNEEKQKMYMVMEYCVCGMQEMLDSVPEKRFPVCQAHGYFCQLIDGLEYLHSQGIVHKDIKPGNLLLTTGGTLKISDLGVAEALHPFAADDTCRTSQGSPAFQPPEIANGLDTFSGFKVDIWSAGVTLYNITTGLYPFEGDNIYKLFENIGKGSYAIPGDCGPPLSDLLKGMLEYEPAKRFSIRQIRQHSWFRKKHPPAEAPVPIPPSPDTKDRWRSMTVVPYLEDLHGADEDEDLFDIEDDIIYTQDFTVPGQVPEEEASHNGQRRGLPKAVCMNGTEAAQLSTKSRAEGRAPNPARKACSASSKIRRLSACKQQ
Chain of UniProt P35626 (whole entry, looked up): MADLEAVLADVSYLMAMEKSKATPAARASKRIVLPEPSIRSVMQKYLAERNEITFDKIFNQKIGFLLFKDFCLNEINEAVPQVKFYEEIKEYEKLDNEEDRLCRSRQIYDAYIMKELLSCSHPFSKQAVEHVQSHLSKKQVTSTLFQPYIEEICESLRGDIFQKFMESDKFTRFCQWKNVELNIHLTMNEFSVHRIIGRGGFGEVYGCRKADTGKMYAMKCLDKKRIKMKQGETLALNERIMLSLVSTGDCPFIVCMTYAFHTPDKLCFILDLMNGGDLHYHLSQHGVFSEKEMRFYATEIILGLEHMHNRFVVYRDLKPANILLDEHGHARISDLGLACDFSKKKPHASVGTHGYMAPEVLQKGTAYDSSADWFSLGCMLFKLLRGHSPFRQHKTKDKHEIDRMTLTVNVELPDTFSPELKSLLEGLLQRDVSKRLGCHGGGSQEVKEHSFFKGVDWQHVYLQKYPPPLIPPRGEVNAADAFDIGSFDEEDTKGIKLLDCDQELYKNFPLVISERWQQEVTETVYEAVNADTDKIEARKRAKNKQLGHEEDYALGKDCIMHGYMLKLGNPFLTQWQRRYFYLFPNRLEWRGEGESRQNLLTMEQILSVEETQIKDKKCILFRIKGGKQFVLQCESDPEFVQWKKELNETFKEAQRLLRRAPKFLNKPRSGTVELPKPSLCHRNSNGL
Chain of UniProt P23458 (whole entry, looked up): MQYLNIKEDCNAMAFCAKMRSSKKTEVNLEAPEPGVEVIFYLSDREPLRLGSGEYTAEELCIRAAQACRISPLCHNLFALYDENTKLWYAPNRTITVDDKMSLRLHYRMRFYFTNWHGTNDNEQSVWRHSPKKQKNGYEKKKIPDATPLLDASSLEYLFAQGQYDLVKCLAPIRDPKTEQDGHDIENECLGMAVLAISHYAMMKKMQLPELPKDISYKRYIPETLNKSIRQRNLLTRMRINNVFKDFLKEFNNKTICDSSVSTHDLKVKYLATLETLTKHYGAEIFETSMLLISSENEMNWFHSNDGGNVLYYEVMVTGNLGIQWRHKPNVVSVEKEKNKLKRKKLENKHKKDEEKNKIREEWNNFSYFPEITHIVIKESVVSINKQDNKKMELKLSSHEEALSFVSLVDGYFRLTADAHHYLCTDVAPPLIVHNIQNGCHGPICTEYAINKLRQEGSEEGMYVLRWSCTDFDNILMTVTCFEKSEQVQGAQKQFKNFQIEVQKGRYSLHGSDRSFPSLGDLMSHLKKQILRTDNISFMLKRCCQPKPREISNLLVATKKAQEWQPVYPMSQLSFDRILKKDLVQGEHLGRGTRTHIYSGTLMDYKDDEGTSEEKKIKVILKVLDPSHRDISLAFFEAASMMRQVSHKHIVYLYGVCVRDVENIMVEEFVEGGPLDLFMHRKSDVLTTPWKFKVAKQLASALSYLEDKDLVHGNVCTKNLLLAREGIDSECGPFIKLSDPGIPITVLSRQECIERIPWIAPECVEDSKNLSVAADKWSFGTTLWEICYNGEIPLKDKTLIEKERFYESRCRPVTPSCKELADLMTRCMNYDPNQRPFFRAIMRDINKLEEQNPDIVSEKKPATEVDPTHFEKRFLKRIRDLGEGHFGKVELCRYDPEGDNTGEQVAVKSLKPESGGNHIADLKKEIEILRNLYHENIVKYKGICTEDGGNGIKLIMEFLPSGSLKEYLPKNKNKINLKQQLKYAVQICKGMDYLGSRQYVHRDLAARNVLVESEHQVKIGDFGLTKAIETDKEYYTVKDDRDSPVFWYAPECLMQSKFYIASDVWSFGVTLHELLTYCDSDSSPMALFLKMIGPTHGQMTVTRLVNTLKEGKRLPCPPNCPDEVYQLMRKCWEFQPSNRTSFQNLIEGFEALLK

Block 1
Cell line: mouse MPNST tumor cells
Method: high-content nuclear imaging
Item: cell number
Tested at: 10 µM
Time: 12 h
Notes: mean of 2 replicates
Baseline: plate mean
Reading: higher = more cells
SMILES | nuclei count
COC(=O)[C@H]1[C@H]2C[C@@H]3c4[nH]c5cc(OC)ccc5c4CCN3C[C@H]2C[C@@H](OC(=O)c2cc(OC)c(OC)c(OC)c2)[C@@H]1OC | 1.28 z-score
O=[N+]([O-])c1cnc(CO)n1CCO | 3.07 z-score
Cc1[nH]c(/C=C2\C(=O)Nc3cc(-c4ccccc4)ccc32)c(C)c1CCC(=O)O | 2.49 z-score
Cc1c(-c2ccccc2)oc2c(C(=O)OCCN3CCCCC3)cccc2c1=O | 1.94 z-score
O=C(Nc1ccccc1)Nc1ccc(-c2ccc(C(=O)[C@@H]3CCC[C@H]3C(=O)O)cc2)cc1 | 1.98 z-score
COc1ccc(S(=O)(=O)Nc2cc(Cl)cc(Cl)c2OC)cc1N1CCNCC1 | 3.23 z-score
C[C@H](N=C(NC#N)Nc1cccc2ncccc12)c1ccccc1 | 3.93 z-score

Block 2
Compound: CN1CCC[C@H]1COc1nc2c(c(N3CCN(S(C)(=O)=O)[C@@H](CC#N)C3)n1)CCN(c1cccc3cccc(Cl)c13)C2
Cell line: HEK293
Method: CellTiter-Glo
Baseline: vehicle
tested at | viability
40 µM | 0.11% and 0.59% and 0.06%
312 nM | 102% and 105%
5 µM | 26.3% and 29.3% and 27.6%
156 nM | 102% and 103%
20 µM | 5.75% and 11.4% and 6.28%

Block 3
SMILES: COc1ccc2[nH]c3c4[nH]c5ccc(OC)cc5c4c4c(c3c2c1)C(=O)NC4=O
Tested at: 1 µM
target | method | item | with | baseline | remaining binding [%]
STK11 (Homo sapiens, UniProt Q15831) | competitive binding panel | LKB1 | – | vehicle | 99
CDK4 (Homo sapiens, UniProt P11802) | competitive binding scan | – | cyclin D1 | – | 82
SNRK (Homo sapiens, UniProt Q9NRH2) | competitive binding panel | – | – | vehicle | 56

Block 4
SMILES: Cc1nc(Cc2cccc(C(F)(F)F)c2)sc1-c1ccc(C(N)=O)nc1
Method: competition with immobilised ligand
Tested at: 1 µM
target | read-out | remaining binding
TBK1 (Homo sapiens, UniProt Q9UHD2) | cell-free assay | 91%
BTK (Homo sapiens, UniProt Q06187) | cell-free assay | 100%
GRK3 (Homo sapiens, UniProt P35626) | cell-free assay | 100%
Cyclin-dependent kinase 4, with cyclin D1 (CDK4, Homo sapiens, UniProt P11802) | cell-free assay | 100%
NIM1K (Homo sapiens, UniProt Q8IY84) | cell-free assay | 100%
PAK3 (Homo sapiens, UniProt O75914) | cell-free assay | 100%
EGFR (Homo sapiens, UniProt P00533, del746-750) | binding | 0%
Tyrosine-protein kinase ABL1, phosphorylated (ABL1, Homo sapiens, UniProt P00519, F317L) | cell-free assay | 89%
Tyrosine-protein kinase JAK1, JH1 (JAK1, Homo sapiens, UniProt P23458) | cell-free assay | 86%
TGFBR2 (Homo sapiens, UniProt P37173) | cell-free assay | 100%
MAP3K9 (Homo sapiens, UniProt P80192) | cell-free assay | 100%
MAPK10 (Homo sapiens, UniProt P53779) | cell-free assay | 100%
PRKAA2 (Homo sapiens, UniProt P54646) | cell-free assay | 96%
MAP3K13 (Homo sapiens, UniProt O43283) | cell-free assay | 100%
MAPK15 (Homo sapiens, UniProt Q8TD08) | cell-free assay | 100%
ULK3 (Homo sapiens, UniProt Q6PHR2) | cell-free assay | 100%
FGFR3 (Homo sapiens, UniProt P22607, G697C) | cell-free assay | 76%
PHKG2 (Homo sapiens, UniProt P15735) | cell-free assay | 100%
RPS6KB1 (Homo sapiens, UniProt P23443) | cell-free assay | 83%
CLK3 (Homo sapiens, UniProt P49761) | cell-free assay | 85%
ACVR1 (Homo sapiens, UniProt Q04771) | cell-free assay | 100%
RET (Homo sapiens, UniProt P07949) | cell-free assay | 100%
CDK16 (Homo sapiens, UniProt Q00536) | cell-free assay | 100%
Non-receptor tyrosine-protein kinase TYK2, JH2 (TYK2, Homo sapiens, UniProt P29597) | cell-free assay | 100%
STK25 (Homo sapiens, UniProt O00506) | cell-free assay | 88%

Block 5
SMILES: CC(=O)N[C@@H](Cc1c[nH]c2ccccc12)C(=O)N[C@@H](CCC(=O)C=[N+]=[N-])C(=O)OC(C)C
Matrix: EL4 tumour
Dose: dose not given
Baseline: vehicle
item | species | log2 fold change
quinolinate | mouse, EL4 tumour-bearing | 0.241
3-sulfo-L-alanine | mouse, EL4 tumour-bearing | 0.51
cysteine sulfinic acid | Mus musculus | 0.087
taurine | mouse, EL4 tumour-bearing | 0.198
1-ribosyl-imidazoleacetate* | mouse, EL4 tumour-bearing | 0.297
N-acetylglycine | mouse, EL4 tumour-bearing | 0.242

Block 6
SMILES: CC#CC(=O)N1CCC[C@H]1c1nc(-c2ccc(C(=O)Nc3ccccn3)cc2)c2c(N)nccn12
Read-out: enzyme activity
Action: inhibitor
Tested at: 1 µM
target | inhibition [%]
EPHB4 (Homo sapiens, UniProt P54760) | 9
STK39 (Homo sapiens, UniProt Q9UEW8) | 4
HUNK (Homo sapiens, UniProt P57058) | 0
RPS6KB1 (Homo sapiens, UniProt P23443) | 1
DCLK2 (Homo sapiens, UniProt Q8N568) | 14
LATS2 (Homo sapiens, UniProt Q9NRM7) | 0
EGFR (Homo sapiens, UniProt P00533) | 22

Excerpt of the above (block 1):
SMILES | nuclei count
COC(=O)[C@H]1[C@H]2C[C@@H]3c4[nH]c5cc(OC)ccc5c4CCN3C[C@H]2C[C@@H](OC(=O)c2cc(OC)c(OC)c(OC)c2)[C@@H]1OC | 1.28 z-score
O=[N+]([O-])c1cnc(CO)n1CCO | 3.07 z-score
Cc1[nH]c(/C=C2\C(=O)Nc3cc(-c4ccccc4)ccc32)c(C)c1CCC(=O)O | 2.49 z-score
Cc1c(-c2ccccc2)oc2c(C(=O)OCCN3CCCCC3)cccc2c1=O | 1.94 z-score
O=C(Nc1ccccc1)Nc1ccc(-c2ccc(C(=O)[C@@H]3CCC[C@H]3C(=O)O)cc2)cc1 | 1.98 z-score
COc1ccc(S(=O)(=O)Nc2cc(Cl)cc(Cl)c2OC)cc1N1CCNCC1 | 3.23 z-score
C[C@H](N=C(NC#N)Nc1cccc2ncccc12)c1ccccc1 | 3.93 z-score
